Assay results gathered from unrelated publications.
Parts stem from different laboratories: compare values within a part only.

Block 1 — technique: RNAcompete; molecule type: RNA; sample: in vitro; tested at: 20 nM; setting: 7-mer, probes averaged, single round; relative to: mean of 7-mers; direction: higher = stronger binding
Target: PABPC1L2, full length, GST fusion (mouse, UniProt A0ABA7IW68)
Construct (chain): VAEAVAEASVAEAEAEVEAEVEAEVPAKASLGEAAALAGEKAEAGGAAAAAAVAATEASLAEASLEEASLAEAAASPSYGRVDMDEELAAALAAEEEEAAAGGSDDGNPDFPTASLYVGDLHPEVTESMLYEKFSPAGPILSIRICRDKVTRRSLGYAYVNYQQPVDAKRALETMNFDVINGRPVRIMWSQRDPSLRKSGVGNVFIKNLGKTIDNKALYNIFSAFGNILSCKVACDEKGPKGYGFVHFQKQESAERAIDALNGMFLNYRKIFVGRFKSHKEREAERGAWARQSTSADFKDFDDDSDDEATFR
The 7-mer Z-score of `AGGGUUC` is reported as -0.112.
The 7-mer Z-score of `GCACGGA` is reported as 0.124.
The 7-mer Z-score of `GUAGUGU` is reported as -0.233.
For `UCAUGAA`, the 7-mer Z-score was 0.157.
`AGCCGGU` gave a 7-mer Z-score of -0.0989.
With `AACAGUA` the 7-mer Z-score was 0.64.
For `UUUCACC`, the 7-mer Z-score was -0.284.
`CUGAACC` gave a 7-mer Z-score of -0.271.
The 7-mer Z-score of `UCAGCCC` is reported as -0.362.
For `GCCGGUC`, the 7-mer Z-score was -0.224.
`GCCUUUC` has a 7-mer Z-score of -0.489.
`UCUUCCA` has a 7-mer Z-score of -0.378.
For `CUAGAUA`, the 7-mer Z-score was -0.0754.
The 7-mer Z-score of `AAUCGGA` is reported as 0.28.
`GUUACCC` gave a 7-mer Z-score of -0.219.
With `GCGGGAU` the 7-mer Z-score was 0.303.
`GAUCGCU` has a 7-mer Z-score of -0.168.
`AAGUGCU` gave a 7-mer Z-score of 0.0388.
`GCUUCCC` has a 7-mer Z-score of -0.407.
`GACAUUA` has a 7-mer Z-score of -0.05.
`CAAGAAC` gave a 7-mer Z-score of -0.0373.
With `UAGCUAC` the 7-mer Z-score was -0.324.
With `GGGACUG` the 7-mer Z-score was 0.345.
`GCAGGGC` has a 7-mer Z-score of 0.0714.

Block 2 — technique: protein-binding microarray; molecule type: double-stranded DNA, one strand shown; sample: in vitro; tested at: 2200 nM top; setting: 60-bp whole probe; together with: salmon DNA 0.4 mg/ml; relative to: random background probes; direction: higher = stronger binding; constant ends, left off below: GCCTAGCAC … GTCTTGATTCGCTTGACGCTGCTG
Target: Interferon regulatory factor 7, full length, phosphomimetic (IRF7, Homo sapiens, UniProt Q92985, residues 1-503, S471D/S472D/S475D/S476D/S477D/S483D/S484D/S487D)
Target sequence (chain): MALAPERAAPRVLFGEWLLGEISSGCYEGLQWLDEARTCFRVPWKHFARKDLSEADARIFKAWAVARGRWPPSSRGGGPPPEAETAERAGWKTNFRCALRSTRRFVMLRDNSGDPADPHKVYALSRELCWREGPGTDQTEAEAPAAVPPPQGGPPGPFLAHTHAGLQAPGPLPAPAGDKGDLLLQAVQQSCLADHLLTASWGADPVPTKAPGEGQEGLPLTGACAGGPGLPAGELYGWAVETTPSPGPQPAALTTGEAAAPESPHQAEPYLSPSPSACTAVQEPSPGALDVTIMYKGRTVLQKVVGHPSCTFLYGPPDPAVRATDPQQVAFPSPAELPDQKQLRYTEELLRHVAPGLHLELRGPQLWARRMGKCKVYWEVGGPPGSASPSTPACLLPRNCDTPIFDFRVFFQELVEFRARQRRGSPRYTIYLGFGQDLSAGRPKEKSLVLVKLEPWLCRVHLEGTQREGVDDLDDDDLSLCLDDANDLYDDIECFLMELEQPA
`TCAGGTATCGGTTTCGGTTAGTGCTAG` — result for “fitted relative affinity”: 7.87 z-score.
`GTGTTTCTCAAATGTTTTGTTGTGCTA`: “fitted relative affinity” 1.64 z-score.
Under “fitted relative affinity”, `TTAGATATCGGGTAACGATTAGTGCTA` is recorded as -0.553 z-score.
`GACGTTTTCCTTCTCCTGACGTGCTAG`: “fitted relative affinity” 3.7 z-score.
`GACGGTTCCGGTCTCGGGACGTGCTAG`: “fitted relative affinity” 0.689 z-score.
For `TTAGGTCTCATTATCCTTTAGTGCTAG`, “fitted relative affinity” read 0.777 z-score.
Under “fitted relative affinity”, `TTAGTTTTCAATTTTTGCATGTGCTAG` is recorded as 1.92 z-score.
`TCATTTTTCTGATCCATACTGTGCTAG` — result for “fitted relative affinity”: 3.13 z-score.
`GACGGTATCGGTATCAGGACGTGCTAG` — result for “fitted relative affinity”: 0.588 z-score.
Under “fitted relative affinity”, `ATTGTCTTCCCCATCTTGTTGTGCTAG` is recorded as 2.38 z-score.
For `GACGGACTGCTTTTCCTGTCGTGCTAG`, “fitted relative affinity” read 1.4 z-score.
For `TTAGGACTGGGTATCGGTCAGTGCTAG`, “fitted relative affinity” read -0.422 z-score.
For `GACGATTTCAGTTCCGAGCCGTGCTAG`, “fitted relative affinity” read 1.57 z-score.
`TTAGGTATCCAACTGCTTTAGTGCTAG`: “fitted relative affinity” 0.415 z-score.
`GACGGACTGGAACTGGGGACGTGCTAG`: “fitted relative affinity” -0.823 z-score.
`GACGGTCTCTTTTTCCTGACGTGCTAG`: “fitted relative affinity” 1.3 z-score.
`CACGGTATCCTTCTCCTGACGTGCTAG` — result for “fitted relative affinity”: 1.1 z-score.
`TCACCTTGCTTTATGTGACTGTGCTAG`: “fitted relative affinity” 1.87 z-score.
Under “fitted relative affinity”, `TTAGAACTGGGGACTGAATTAGTGCTA` is recorded as -0.397 z-score.
Under “fitted relative affinity”, `TTAGGTTTAGGGTTTCGGTTAGTGCTA` is recorded as 3.16 z-score.
`TCCTTTATGTACTCTCTACATGTGCTA` — result for “fitted relative affinity”: 1.91 z-score.
`ATAGATATCAGTCTCGATTAGTGCTAG` — result for “fitted relative affinity”: 0.41 z-score.
`ACACATCTCACTCTAATCTCGTGCTAG`: “fitted relative affinity” 1.69 z-score.

Block 3 — technique: RNA Bind-n-Seq; molecule type: RNA; sample: in vitro; tested at: 365 nM; relative to: no-protein control; direction: higher = stronger binding
Target: RNA binding protein fox-1 homolog 2, RRM domain, GST-SBP tag (RBFOX2, Homo sapiens, UniProt O43251-10, residues 100-194)
Setting: natural RNA segment, single round, ends assumed
Residues (chain): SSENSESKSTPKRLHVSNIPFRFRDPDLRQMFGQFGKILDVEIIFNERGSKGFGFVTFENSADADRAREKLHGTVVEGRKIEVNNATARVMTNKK
For `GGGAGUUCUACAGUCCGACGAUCCCUGGCCCUCCACCUGCCUCCAGGCCACGAAAUGGGAAUUCCAGCACUAAGCCAGGCACCGGGCAGAAGCUGGGCCUUCCGCCUCCCUUGGAUGGGGUCAAGAGGCCAGGUGGAAUUCUCGGGUGCCAA`, “RBNS enrichment (R)” read 0.692.
`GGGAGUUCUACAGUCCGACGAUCGCAAAGCCUGGGACAUUUGCAAUAGCAAGCACCCUCUGUAGUCUCCUGCAGAGCCAUAGCUUCAAUGUUCUAAGAUCACUGUGACUGGUCAGGAGGACAGGACGCUGCUUUGGAAUUCUCGGGUGCCAA`: “RBNS enrichment (R)” 0.442.
`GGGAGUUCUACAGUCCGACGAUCUUUUUUCAGUUAGAAGAAGGUUUUUAUGAGUUAAUUUUACCCAUAAAUAUUUCAGUAAUUUUGGAGUGGAAGUUGGGUUGCUAACAUCAGAGCUCAUGUUCAUGUUUUAGUGGAAUUCUCGGGUGCCAA`: “RBNS enrichment (R)” 0.416.
Under “RBNS enrichment (R)”, `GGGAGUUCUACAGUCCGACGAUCACCAAACAUUCAAUUUGGAAUAAGAAUGAUUUUUUAAAGUUCUGUCUGAAACAUUAUCAAACUUGUGUAAAUAUUUUGAUUUAUGUCUUAGAUCCUGUUAACCGUGUCCUUGGAAUUCUCGGGUGCCAA` is recorded as 0.346.
`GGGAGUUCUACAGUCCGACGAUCCAAGCUGAGGGAUACAGGUCCUGAUUUGGUAGGAAUAUUAUUCCCAAGAAAUACCCGCUCCUCACCUACUCCCUCAUCCUACCAAGGUGCCUGAAAAUGUUCAAGACUUAUGGAAUUCUCGGGUGCCAA` — result for “RBNS enrichment (R)”: 0.859.
For `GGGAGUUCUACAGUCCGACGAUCCCUAUGGGAAACCUAGGUUUCAUUAUAGCUGAAGUAGACACAUGAAUUAAAAACAUUACAAAUGAAAUUUGUUUGUUUUUUCUCUUUUAUUAAUGUGUAUAAAUGUGAGUUGGAAUUCUCGGGUGCCAA`, “RBNS enrichment (R)” read 0.396.
Under “RBNS enrichment (R)”, `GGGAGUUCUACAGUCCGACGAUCUUCCCUUCAGUUAAAGGGUUUCUUUUUCAGAGGGCCUAGACUGUGCUGACCUUGUGUGACCAGAGAUUUAAAGAUGAAAAAAACAAUAAAUGUGUUUACUUCUGCACCACUGGAAUUCUCGGGUGCCAA` is recorded as 0.235.
For `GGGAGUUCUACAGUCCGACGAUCUUCUGCUUUCUGUUCGGGGUGCCCUUCACUUAAUUGCCUUACUGGCUGGCUGACGGCAGGGGAGUGUGAGUGUUAGGUUAGGGCCUUCUCAUGAAAGGGGCAGUUGCACAUGGAAUUCUCGGGUGCCAA`, “RBNS enrichment (R)” read 0.482.
`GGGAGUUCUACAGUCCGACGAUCACAUGGCAAAGAUUGUAUGAAAUACCUGUUUUUCAGAAAAUAAAGGUUCAGUCUCAAAAGAUACAGCUUUAAGUUCUGAAUUUAUUGGUCAAAAUAGAUUUUGGAAAACUUGGAAUUCUCGGGUGCCAA`: “RBNS enrichment (R)” 0.526.
Under “RBNS enrichment (R)”, `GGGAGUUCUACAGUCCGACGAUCAACCGCCACCUUUAGAAUUUCCAACACUCAGGCUCUGCCCGUCGGCUUGGCUGCAGGACAGAGACUUGACUCCAUCCCAGCUCUGGUCUUGGCUGGGAUGGCACUACCCUUGGAAUUCUCGGGUGCCAA` is recorded as 0.232.
`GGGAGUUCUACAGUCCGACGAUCUCCCCGUGCUCCUGGCGAGCCUGAGCUUGCCACCCGGUUCUCCCUGCCCGACUCCAGCUGCCCAAGGACCUUUGUGUAAGGUGGCCUCAACUGUCUGGUUUUCUUUUUUUUGGAAUUCUCGGGUGCCAA`: “RBNS enrichment (R)” 0.348.
Under “RBNS enrichment (R)”, `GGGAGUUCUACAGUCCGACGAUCCUUGGGAAGUUUUGUUGGGUCAAGAAGAGAGAACUCUGUUCUCGCACCACCGGGAUCUGUCCUGCAAAGUUGAAGGGAUCCUUUGGUGCCAGCUGGUGUUUGGAAGUAGGUGGAAUUCUCGGGUGCCAA` is recorded as 0.813.

Block 4 — technique: universal PBM; molecule type: double-stranded DNA, one strand shown; sample: in vitro; tested at: not given; direction: higher = stronger binding
Target: Sal-like protein 4, full length isoform B (SALL4, Homo sapiens, UniProt Q9UJQ4-2, residues 1-616)
Setting: 8-mer, flanks averaged, mean of replicates
With `CCGAGACC` the E-score was -0.33.
`GAAGGCTA` gave an E-score of -0.00411.
`GAGTAATA` has an E-score of 0.341.
The E-score of `CAGACATG` is reported as 0.0537.
`ATCATTGC` gave an E-score of 0.0876.
The E-score of `CTCTGTAA` is reported as 0.0336.
`CTAGATCA` gave an E-score of -0.0266.
`AGACTTGA` gave an E-score of -0.0104.
`ACTCCTTG` gave an E-score of -0.136.
`CGACTCGA` has an E-score of -0.159.
The E-score of `TCTCAACA` is reported as 0.112.
The E-score of `CCTTCTCA` is reported as -0.0909.
`CGATGGAA` gave an E-score of -0.0876.
`CCCATAGA` has an E-score of -0.0647.
With `ACACGTGT` the E-score was 0.0762.
The E-score of `CGGGGGAC` is reported as -0.355.
For `CCAGTGCC`, the E-score was -0.309.
With `CGGGTTAG` the E-score was -0.315.

Block 5 — technique: protein binding microarray; molecule type: double-stranded DNA, one strand shown; sample: in vitro; tested at: not given; relative to: not given; direction: higher = stronger binding
Target: Histone acetyltransferase KAT6A, winged helix 1, GST fusion (KAT6A, Homo sapiens, UniProt Q92794, residues 1-85)
Setting: 8-mer, flanks averaged, mean of 2 arrays, mostly near background
Residues (chain): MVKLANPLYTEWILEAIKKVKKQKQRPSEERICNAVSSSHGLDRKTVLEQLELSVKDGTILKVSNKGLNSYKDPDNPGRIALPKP
`TGCACCAA` gave an E-score of -0.308.
`CTCGCCTC` has an E-score of -0.14.
`CTGCAGCA` gave an E-score of -0.169.
With `AAGCCCCT` the E-score was 0.0386.
The E-score of `ACAGCGAA` is reported as -0.0304.
`AGTTTCAG` has an E-score of 0.0604.
`AGGTGGTG` gave an E-score of -0.235.
The E-score of `ACGACGTG` is reported as -0.0161.
The E-score of `CATACAGG` is reported as -0.19.
With `AATCGTTC` the E-score was -0.158.
With `GAACATTA` the E-score was -0.13.
With `ATGGTCTA` the E-score was -0.136.
`ACGGGGGG` has an E-score of 0.238.
`AAGTGCAT` gave an E-score of -0.196.
`CGATTTAC` has an E-score of 0.0466.
With `GGAATACC` the E-score was 0.0313.
`CCTGAGCA` gave an E-score of -0.189.
With `ACGTCTCG` the E-score was -0.0411.
The E-score of `ACCGCACC` is reported as 0.236.
The E-score of `ATGAGCGG` is reported as 0.153.
